# Results collected from several papers.
# Parts stem from different laboratories: compare values within a part only. Values joined by “and” are separate records of one study, mostly repeats; a detail may differ.

# Sample 1 — species: human; matrix: microsomes or S9; concentration: 2 µM; time: 0.5 h
Compound,remaining compound [%]
Cc1ccc(S(=O)(=O)N2CCN(c3ncnc4c3nnn4Cc3ccccc3)CC2)cc1,> 100
O=C(NC1CCOCC1)N1CCC(CCc2ccc(O)cc2)CC1,> 100
CCn1ccc(C(=O)N2CCCN(S(C)(=O)=O)c3ccccc32)n1,7.95
CC(=O)c1c(C)cn(CC(O)CN2CCNCC2)c1C (centres unmarked),> 99.9
CCS(=O)(=O)Nc1ccc(C(=O)OC(C)C)cc1,83.9
CCOc1ccc(OCC)c(NC(=O)c2cc(S(=O)(=O)N3CCc4ccccc43)cn2C)c1,3.06

# Sample 2 — technique: logD(dd/w) and ALogP; setting: MRN method
Compound,lipophilic permeability efficiency
CCC[C@H]1NC(=O)[C@H](CC(C)C)NC(=O)[C@H](Cc2ccccc2)NC(=O)[C@H]2CCCN2C(=O)[C@H](CC2CCCCC2)NC(=O)[C@H](CC2CCCCC2)NC1=O,1.73
CCC[C@@H]1C(=O)N(C)[C@@H](C)C(=O)N[C@@H](CC(C)C)C(=O)N2CCC[C@@H]2C(=O)N(C)[C@@H](C)C(=O)N[C@@H](CC(C)C)C(=O)N1C,3.76
CC[C@H]1C(=O)N[C@@H](CC(C)C)C(=O)N2CCC[C@@H]2C(=O)N(C)[C@@H](Cc2ccc(O)cc2)C(=O)N[C@@H](CC(C)C)C(=O)N(C)[C@H](C)C(=O)N1C,1.46
CCC[C@H]1NC(=O)[C@H](CC(C)C)NC(=O)[C@H](Cc2ccc(O)cc2)NC(=O)[C@H]2CCCN2C(=O)[C@H](CC2CCCCC2)NC(=O)[C@H](CC2CCCCC2)NC1=O,-0.0378

# Sample 3 — organism: Sarcocystis neurona; effect on: parasite growth; concentration: 10 µM; time: 96 h; setting: second screen; baseline: untreated
Structure (SMILES),log2 fold change
O=S(=O)(O)CCS,0.13
CC1(C)O[C@@H]2C[C@H]3[C@@H]4C[C@H](F)C5=CC(=O)C=C[C@]5(C)[C@H]4[C@@H](O)C[C@]3(C)[C@]2(C(=O)CO)O1,0.4
COc1cc(C)nc(-n2nc(C)cc2OC)n1,0.09
O=C(NCCN1CCOCC1)c1ccc(Cl)cc1,0.46
CC(=O)NS(=O)(=O)c1ccc(N)cc1,0.11

# Sample 4 — cell line: mouse MPNST tumor cells; technique: high-content immunofluorescence imaging; measured: nuclear SOX9; concentration: 10 µM; time: 12 h; setting: mean of 2 replicates; baseline: DMSO control; reading: higher = more nuclear SOX9
Compound,nuclear SOX9 intensity
c1ccc2c(c1)CCC[C@H]2Nc1nc2ccccc2[nH]1,110 % of DMSO
Oc1c(Cl)cc(Cl)c2cccnc12,112 % of DMSO
CCOc1nc2cccc(C(=O)OCc3oc(=O)oc3C)c2n1Cc1ccc(-c2ccccc2-c2noc(=O)[nH]2)cc1,99 % of DMSO
CCCCC[C@H](O)/C=C/[C@H]1[C@H](O)CC(=O)[C@@H]1CCCCCCC(=O)O,97 % of DMSO
Cc1ccc(S(=O)(=O)N[C@@H](CCN)C(=O)N[C@@H](Cc2ccccc2)C(N)=O)c2ccccc12,101 % of DMSO
COc1ccc(Cn2ccc3ccc(C(=O)NO)cc32)cc1,103 % of DMSO
Cc1cc(Nc2cc(Cl)nc(Oc3ccc([N+](=O)[O-])cc3)n2)n[nH]1,104 % of DMSO

# Sample 5 — technique: CellTiter-Glo; concentration: 0.1 µM; setting: mean of five organoid lines; baseline: DMSO
# Cell line: normal adjacent epithelium patient-derived organoids
Compound,viability [%]
Nc1cnc(N2CCc3cc(S(=O)(=O)Nc4c(F)cc(Cl)cc4F)cc(N4CCCC4=O)c32)nc1,112
N#Cc1ccc(Nc2ccc3[nH]c(=O)[nH]c3c2)c(Cl)c1,108
COc1cccc(CNC(=O)c2nc3scc(COCc4ccc(C(=O)O)cc4)c3c(=O)[nH]2)c1,109
COc1cc(N[C@@H]2CCCC[C@]2(O)C(F)(F)F)ccc1F,113
CCCCN(CCCC)C(=O)CN1C[C@H](c2cc(OC)c3c(c2)OCO3)[C@@H](C(=O)O)[C@@H]1CC(C)(C)CCC,108
Cc1ccc(-c2cnc([C@@]3(O)CC[C@H](C(=O)O)C(C)(C)C3)s2)cc1Nc1cccc(C(F)(F)F)n1,103
O=C(c1ccc(F)cc1)N1CC(COc2ccc(Br)cc2)(C(=O)O)C1,104
Nc1c(C(=O)NCc2ccc(C(=O)NCCCC3CCCCC3)cc2)cnn1-c1ccccc1,123
Cc1c[nH]c2nccc(Oc3c(F)cc(Nc4cc(Cl)nc(N)n4)cc3F)c12,120
CCCOc1ccc([C@@H]2[C@@H](C(=O)O)[C@H](c3ccc4c(c3)OCO4)CN2CC(=O)Nc2c(CC)cccc2CC)cc1,114
CNCc1ccccc1-c1csc([C@H](C)Nc2nc(C)nc3cc(OC)c(OC)cc23)c1,104
Cc1nc(Cc2cccc(C(F)(F)F)c2)sc1-c1ccc(C(N)=O)nc1,102
CN1C(=O)[C@@H](N2CCc3cn(Cc4ccccc4)nc3C2=O)COc2ccccc21,122
CC(C)CC(=O)N1CCc2nc(-c3ccc(Br)cc3)nc(N(C)Cc3ccccc3)c2C1,131
COc1ccc2cc(OCC3(C(=O)O)CN(C(=O)c4ccc(F)cc4)C3)ccc2c1,116
CN1C(=O)[C@@H](N2CCc3c(nn(Cc4ccccc4)c3Br)C2=O)COc2ccccc21,118
O=C(NCc1ncc(C(F)(F)F)cc1Cl)c1ccc2c(c1)C1(CCS(=O)(=O)CC1)[C@H](C1CC1)N2S(=O)(=O)c1ccc(F)cc1,105
Cc1cc(C)c(-n2ccn3nc(-c4cccnc4)cc23)cc1NC(=O)c1cc(C#N)cc(S(F)(F)(F)(F)F)c1,103

# Mixed results
Compound,cell line,test,conditions,scale,quantity,result
COc1ccc(Oc2cc(NCCC(F)(F)F)c3ncc(-c4ccc(C(=O)NC5CC5)c(C)c4)n3n2)c(F)c1F,NCI-H1048,Vi-Cell,"1.5 nM, 3 d",baseline: DMSO,cell count,0.93 and 0.909

# For quick reference, copied from above (sample 5):
Compound,viability [%]
CCCOc1ccc([C@@H]2[C@@H](C(=O)O)[C@H](c3ccc4c(c3)OCO4)CN2CC(=O)Nc2c(CC)cccc2CC)cc1,114
CNCc1ccccc1-c1csc([C@H](C)Nc2nc(C)nc3cc(OC)c(OC)cc23)c1,104
